Results of several laboratories.
Each numbered part is a random draw from the data of one study; scales do not carry over between parts.

Study 1
Target: Hepatocyte nuclear factor 3-beta, forkhead domain (FOXA2, Homo sapiens, UniProt Q9Y261, residues 142-269)
Method: protein-binding microarray
Form: double-stranded DNA, one strand shown
Sample: in vitro
Tested at: not given
Setting: k-mer, scored over probes, only values ≥0.25
Direction: higher = stronger binding
Quantity: E-score
Construct (chain): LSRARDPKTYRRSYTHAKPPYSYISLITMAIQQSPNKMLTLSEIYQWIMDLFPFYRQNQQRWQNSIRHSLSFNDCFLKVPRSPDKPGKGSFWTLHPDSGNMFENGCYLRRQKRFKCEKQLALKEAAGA
ATACCATC: 0.262
AAGTATAC: 0.341
TATCTACA: 0.365
ACTATCTA: 0.363
ACACATGT: 0.323
CATATAGA: 0.355
AATATATA: 0.31
AATGGTAT: 0.274
ATATCATC: 0.275
CTTTGTTA: 0.304
TACATACA: 0.407
AATTAGAC: 0.301
TATGATCA: 0.257
ACCAATAC: 0.28
ATCAATGA: 0.266

Study 2
Target: Sal-like protein 4, full length isoform A (SALL4, Homo sapiens, UniProt Q9UJQ4, residues 1-1053)
UniProt Q9UJQ4, sequence (whole entry, looked up): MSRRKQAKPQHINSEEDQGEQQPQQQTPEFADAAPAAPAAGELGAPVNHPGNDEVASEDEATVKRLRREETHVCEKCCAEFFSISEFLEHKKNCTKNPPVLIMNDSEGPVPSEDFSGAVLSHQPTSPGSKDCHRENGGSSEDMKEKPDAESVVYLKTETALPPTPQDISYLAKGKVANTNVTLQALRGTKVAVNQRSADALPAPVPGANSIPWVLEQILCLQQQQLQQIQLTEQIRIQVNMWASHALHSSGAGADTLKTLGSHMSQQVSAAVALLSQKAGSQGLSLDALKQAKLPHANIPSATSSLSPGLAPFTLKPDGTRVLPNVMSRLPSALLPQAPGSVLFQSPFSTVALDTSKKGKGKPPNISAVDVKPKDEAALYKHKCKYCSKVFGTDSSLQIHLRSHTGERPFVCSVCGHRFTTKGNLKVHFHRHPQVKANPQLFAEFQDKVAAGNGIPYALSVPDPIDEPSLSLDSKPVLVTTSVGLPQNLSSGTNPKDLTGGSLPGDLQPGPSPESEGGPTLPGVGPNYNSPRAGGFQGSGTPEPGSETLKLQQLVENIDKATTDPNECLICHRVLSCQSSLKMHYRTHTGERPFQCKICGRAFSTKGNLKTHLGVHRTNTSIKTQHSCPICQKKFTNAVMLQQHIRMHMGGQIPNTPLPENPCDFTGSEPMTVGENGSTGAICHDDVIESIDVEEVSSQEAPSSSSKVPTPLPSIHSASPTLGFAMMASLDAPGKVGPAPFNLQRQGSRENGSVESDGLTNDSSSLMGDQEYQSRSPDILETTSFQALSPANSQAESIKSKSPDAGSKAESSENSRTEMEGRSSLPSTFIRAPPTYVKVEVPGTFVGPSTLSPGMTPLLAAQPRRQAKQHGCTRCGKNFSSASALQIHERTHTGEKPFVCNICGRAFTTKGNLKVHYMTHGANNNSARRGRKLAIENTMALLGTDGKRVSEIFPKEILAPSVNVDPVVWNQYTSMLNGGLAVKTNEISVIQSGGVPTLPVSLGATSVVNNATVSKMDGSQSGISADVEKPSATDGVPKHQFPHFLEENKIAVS
Method: universal PBM
Form: double-stranded DNA, one strand shown
Sample: in vitro
Tested at: 600 nM
Setting: 8-mer, flanks averaged, mean of replicates
Direction: higher = stronger binding
Quantity: E-score
AAGCCATC: 0.0307
GAAAACGC: -0.0625
GAGTGCAA: 0.00734
AGGCTGCA: -0.0412
CATTCGAG: 0.0443
CCTGACAC: -0.0954
ATGCCGGA: -0.0773
AGTAATAA: 0.4
CGAGGTAG: -0.337
AGATAGCC: -0.204
GCAACTGA: -0.092
ATGGCCTC: -0.131
GCAGTGCA: -0.146
CCGGTCCG: -0.418
CCTAGCTC: -0.192
ACGACGCT: -0.123
TATGTTCA: 0.24
ATGGCACG: -0.11
AATACTCC: 0.0773
ATGTGTGG: -0.00458
ATGACACC: 0.0239
AGGTCAGC: -0.106
CTGTTTAC: 0.251
AGCTGGGA: -0.156

Study 3
Target: Histone acetyltransferase KAT6A, both winged helices, GST fusion (KAT6A, Homo sapiens, UniProt Q92794, residues 1-181)
Method: protein binding microarray
Form: double-stranded DNA, one strand shown
Sample: in vitro
Tested at: not given
Setting: 8-mer, flanks averaged, mean of 2 arrays, mostly near background
Reference: not given
Direction: higher = stronger binding
Quantity: E-score
Target sequence (chain): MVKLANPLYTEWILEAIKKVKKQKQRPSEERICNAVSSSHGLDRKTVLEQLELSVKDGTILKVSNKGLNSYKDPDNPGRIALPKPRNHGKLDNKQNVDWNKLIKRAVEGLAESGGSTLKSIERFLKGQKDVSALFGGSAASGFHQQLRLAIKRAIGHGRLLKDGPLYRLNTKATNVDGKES
AGGTAGTG: -0.0991
CAGCGATA: -0.18
TCGAACGA: 0.107
AAGGAAAT: -0.196
GATTCTGA: 0.0272
ACAGCTAA: -0.123
ATTAACGG: 0.196
CAAGGTGC: -0.0339
AGACACCC: -0.189
CTAGCCCA: -0.228
CGTGATCC: -0.0321
ATGTTAAG: -0.08
GGGACTTA: -0.111
CAATAAAA: -0.106
CCATTTCC: 0.0463
ACTGCCTA: -0.211
TGTCGCAA: 0.0846
ACTCTTCC: -0.0123

Study 4
Target: Interferon regulatory factor 5, full length, phosphomimetic (IRF5, Homo sapiens, UniProt Q13568-2, residues 1-514, K96S/S451D/S453D/S456D/S462D)
Method: protein-binding microarray
Form: double-stranded DNA, one strand shown
Sample: in vitro
Tested at: 250 nM
Setting: 60-bp whole probe
Added: salmon DNA 0.4 mg/ml
Reference: random background probes
Direction: higher = stronger binding
Quantity: log fluorescence
All sequences stand within: GCCTAGCAC … GTCTTGATTCGCTTGACGCTGCTG
GACGATATCAGGCTCGAGACGTGCTAG: 0.194 z-score
TTAGAATTGGGGACTGGATTAGTGCTA: -0.125 z-score
TCACCTTCCTCTTTTACACTGTGCTAG: 0.609 z-score
CTTGTGCTCCTTTTAATTTTGTGCTAG: 0.22 z-score
GACGGTATGCTTATCCTGACGTGCTAG: -0.412 z-score
GACGGTTTCGGGTTACGGGACGTGCTA: 7.8 z-score
TTAGGTCTGGACTATCGGTTAGTGCTA: 5.18 z-score
TTAGGTTTCTGGACTGGGTTAGTGCTA: 0.962 z-score
TTAGGACTGGGTCTCGGGTAGTGCTAG: -0.632 z-score
GACGATTTCCGTTTCGAGACGTGCTAG: 3.63 z-score
GACCGTCTCGGTATCGGGACGTGCTAG: 0.98 z-score
ACCGCATTCGAATTCAGAATGTGCTAG: 0.388 z-score
TTCATTTTGTTCATCATTGCGTGCTAG: 1.16 z-score
GCCACCGGTCTCCATGGGTCGTGCTAG: -0.676 z-score
TGAGATATCGGGACTGGATTAGTGCTA: 0.72 z-score
TTAGGTTTCCTTTTCCTTTCGTGCTAG: 2.84 z-score
TCAGTTCCTTATTTAAGACTGTGCTAG: 0.238 z-score
TTAGGACTGGGGTATCGGTGAGTGCTA: 0.734 z-score
TCATCTTTGCAGATAAAACTGTGCTAG: 0.624 z-score
TTCCCTCCCTAATTCTGATTGTGCTAG: 0.321 z-score
CCCATTCTGAATTCGAATGCGTGCTAG: 0.0872 z-score
GACGAAATGGGGTATCGAGACGTGCTA: 0.904 z-score

Study 5
Target: RING finger protein unkempt homolog, zinc fingers 1-6, GST-SBP tag (UNK, Homo sapiens, UniProt Q9C0B0, residues 30-357)
UniProt Q9C0B0, sequence (30-357, looked up): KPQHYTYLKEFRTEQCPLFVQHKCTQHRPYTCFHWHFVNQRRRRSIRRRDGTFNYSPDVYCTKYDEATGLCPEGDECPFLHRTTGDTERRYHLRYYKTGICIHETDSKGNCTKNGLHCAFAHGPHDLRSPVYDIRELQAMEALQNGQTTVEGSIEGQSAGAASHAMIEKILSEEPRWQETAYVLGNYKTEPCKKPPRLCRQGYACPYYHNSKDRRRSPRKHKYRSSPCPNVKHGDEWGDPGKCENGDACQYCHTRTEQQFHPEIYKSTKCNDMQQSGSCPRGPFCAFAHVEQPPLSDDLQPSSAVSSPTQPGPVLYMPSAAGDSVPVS
Method: RNA Bind-n-Seq
Form: RNA
Sample: in vitro
Tested at: not given
Setting: RNA with constant flanks, human-mouse chimeric sites, ends assumed
Reference: input RNA pool
Direction: higher = stronger binding
Quantity: bound/input enrichment
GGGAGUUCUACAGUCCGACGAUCGUGACUGGUGUUAAGAUUUCCCCUCAGCAAAGAAGUGCAGUAGUCACCAUAAUUCCAUCUGUGGUGAAUGCCAAUCAGAUUGUGGAGCUGGUUCCAGACCUCAGUUUAGACAUGGGAACUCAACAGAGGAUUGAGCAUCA: 0.203 ratio
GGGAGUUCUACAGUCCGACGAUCGGACAUCUGUCAAAUUGUUAUGUUCCUGUGAAACAAGUGAACACUCUGAUACACUUCAUCUGCUUGUACAUCUGUAUUUGUAUAAUAUGUAAAUAUGAAUAUAUUUACAAUGUGUCACUUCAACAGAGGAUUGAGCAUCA: 0.108 ratio
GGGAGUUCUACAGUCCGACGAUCCUCGGCACCGGCACGCUUUACAUCGCGGAGAGCCGCCUGUCCUGGUUAGAUGGUUCGGGAUUAGGAUUCUCACUGGAAUACCCCACCAUUAGUUUACAUGCAUUAUCCAGGGAUCCAAACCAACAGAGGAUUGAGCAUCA: 1.82 ratio
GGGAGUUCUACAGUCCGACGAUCUGUGCAUAUGAUGCUUGAGAUGGUUUUUGCAAAAGCAGAAAUCGCUGCAAGGUCAUUACAAUAGAUAAAAGUGGUAUUUUAAACCUUUGAAAUAAAUGGAUGUAACUGUACGUUGGUACACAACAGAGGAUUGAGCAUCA: 0.476 ratio
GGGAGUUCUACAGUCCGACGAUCCCACCAGGAUCCCAGAAACAUGACCCUUGCUGCCUACAAAGAGAAGAUGAAGGAACUCCCGCUGGUGUCCUUGUUCUGCUCCUGCUUCCUGGCCGAUCCCCUGAAUAAGUCGUCCUACAACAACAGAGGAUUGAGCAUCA: 0.312 ratio
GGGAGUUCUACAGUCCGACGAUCCUGGCACUGUAUCAGAUAUAUUAAUUUUUUAAUGUAGAUGUAAUUUUAAAAAUGAAUGGCUACUUUACACGUUUAACUAGGCUCUUACUAUAUAUGUGUACAUAUGUAUAUAUAUAUAUACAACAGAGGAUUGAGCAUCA: 2.99 ratio
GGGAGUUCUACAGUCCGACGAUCGCGGCAGAAUCAUGGAGGACAUAAUGCAGCUCCCCAAAGCGCGCGUCAACGCCAGCAUGUUACCACAGUAUAUCGACCGGCCCGUGUGCUUCGUAGGGAAGCUGGAAAAGAUUCAUCCCACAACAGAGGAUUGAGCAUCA: 0.148 ratio
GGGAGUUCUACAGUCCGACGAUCGCCACCAGAUCCCAGAAACAUGACCCUUGCUGCCUACAAAGAGAAGAUGAAGGAGCUCCCGCUGGUGUCCUUGUUCUGCUCUUGCUUCCUGGCCGAUCCCCUGAAUAAGUCGUCCUACAACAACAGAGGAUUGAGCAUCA: 0.231 ratio
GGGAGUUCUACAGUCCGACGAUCGCUCCUCCCCGCUCUGCAGCCUGGGGACUUUUGGCAAGGACCAGAAUCCAGCUUUCUUUUAAAACUCUCAGUGUAACUUCUUUUUCUGACAUUUCAUUUUUUUUAAAUAGUGUAUUUUUUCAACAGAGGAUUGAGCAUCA: 4.46 ratio
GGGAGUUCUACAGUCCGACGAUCAUAGAUGAAAUUGAUGUGGACCAGGAAGGAAUUGCAGAAAUGAUCCUGGAUGAAAAUGCUAUUGCUCAGGUCCCACGCCCUGGAACGUCUUUGAAGCUCCCUGGCACUAACCAAACAGGACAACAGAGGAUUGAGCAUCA: 0.368 ratio
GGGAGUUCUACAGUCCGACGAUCGGUGGGGUGGUCAUUGCCGUUUGAGCUGCUGAUUUUCAUGAGUCGCCUUCAAAACUCUCGUGUAGGGUUGACAAUGUAAGGGGUGGGGGGAUCCAGCUAUUUUUUUUAUUUUCAAGUCCACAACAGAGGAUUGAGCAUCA: 2.75 ratio

Excerpt of the above (study 5):
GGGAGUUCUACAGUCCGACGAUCGGACAUCUGUCAAAUUGUUAUGUUCCUGUGAAACAAGUGAACACUCUGAUACACUUCAUCUGCUUGUACAUCUGUAUUUGUAUAAUAUGUAAAUAUGAAUAUAUUUACAAUGUGUCACUUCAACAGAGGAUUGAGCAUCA: 0.108 ratio
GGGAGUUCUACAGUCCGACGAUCGGUGGGGUGGUCAUUGCCGUUUGAGCUGCUGAUUUUCAUGAGUCGCCUUCAAAACUCUCGUGUAGGGUUGACAAUGUAAGGGGUGGGGGGAUCCAGCUAUUUUUUUUAUUUUCAAGUCCACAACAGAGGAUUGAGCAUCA: 2.75 ratio
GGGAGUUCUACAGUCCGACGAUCGCGGCAGAAUCAUGGAGGACAUAAUGCAGCUCCCCAAAGCGCGCGUCAACGCCAGCAUGUUACCACAGUAUAUCGACCGGCCCGUGUGCUUCGUAGGGAAGCUGGAAAAGAUUCAUCCCACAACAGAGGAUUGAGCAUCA: 0.148 ratio
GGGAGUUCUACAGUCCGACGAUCUGUGCAUAUGAUGCUUGAGAUGGUUUUUGCAAAAGCAGAAAUCGCUGCAAGGUCAUUACAAUAGAUAAAAGUGGUAUUUUAAACCUUUGAAAUAAAUGGAUGUAACUGUACGUUGGUACACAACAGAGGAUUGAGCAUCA: 0.476 ratio
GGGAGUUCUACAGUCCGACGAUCGCCACCAGAUCCCAGAAACAUGACCCUUGCUGCCUACAAAGAGAAGAUGAAGGAGCUCCCGCUGGUGUCCUUGUUCUGCUCUUGCUUCCUGGCCGAUCCCCUGAAUAAGUCGUCCUACAACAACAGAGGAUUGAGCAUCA: 0.231 ratio
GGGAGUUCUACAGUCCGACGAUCCCACCAGGAUCCCAGAAACAUGACCCUUGCUGCCUACAAAGAGAAGAUGAAGGAACUCCCGCUGGUGUCCUUGUUCUGCUCCUGCUUCCUGGCCGAUCCCCUGAAUAAGUCGUCCUACAACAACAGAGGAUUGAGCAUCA: 0.312 ratio
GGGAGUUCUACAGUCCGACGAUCCUCGGCACCGGCACGCUUUACAUCGCGGAGAGCCGCCUGUCCUGGUUAGAUGGUUCGGGAUUAGGAUUCUCACUGGAAUACCCCACCAUUAGUUUACAUGCAUUAUCCAGGGAUCCAAACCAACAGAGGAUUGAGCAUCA: 1.82 ratio
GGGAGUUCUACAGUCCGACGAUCGCUCCUCCCCGCUCUGCAGCCUGGGGACUUUUGGCAAGGACCAGAAUCCAGCUUUCUUUUAAAACUCUCAGUGUAACUUCUUUUUCUGACAUUUCAUUUUUUUUAAAUAGUGUAUUUUUUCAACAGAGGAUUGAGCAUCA: 4.46 ratio
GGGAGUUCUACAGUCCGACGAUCAUAGAUGAAAUUGAUGUGGACCAGGAAGGAAUUGCAGAAAUGAUCCUGGAUGAAAAUGCUAUUGCUCAGGUCCCACGCCCUGGAACGUCUUUGAAGCUCCCUGGCACUAACCAAACAGGACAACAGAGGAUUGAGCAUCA: 0.368 ratio
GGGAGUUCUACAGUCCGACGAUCCUGGCACUGUAUCAGAUAUAUUAAUUUUUUAAUGUAGAUGUAAUUUUAAAAAUGAAUGGCUACUUUACACGUUUAACUAGGCUCUUACUAUAUAUGUGUACAUAUGUAUAUAUAUAUAUACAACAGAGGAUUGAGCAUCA: 2.99 ratio
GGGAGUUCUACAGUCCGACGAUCGUGACUGGUGUUAAGAUUUCCCCUCAGCAAAGAAGUGCAGUAGUCACCAUAAUUCCAUCUGUGGUGAAUGCCAAUCAGAUUGUGGAGCUGGUUCCAGACCUCAGUUUAGACAUGGGAACUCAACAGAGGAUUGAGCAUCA: 0.203 ratio
